# Assay results gathered from unrelated publications.
# Numbered parts are unrelated; each lists some results of a single study.

# Study 1
# Target: Interferon regulatory factor 5, full length, phosphomimetic (IRF5, Homo sapiens, UniProt Q13568-2, residues 1-514, K96S/S451D/S453D/S456D/S462D)
# Method: protein-binding microarray
# Form: double-stranded DNA, one strand shown
# Sample: in vitro
# Concentration: 250 nM
# Setting: 60-bp whole probe
# Added: salmon DNA 0.4 mg/ml
# Baseline: random background probes
# Reading: higher = stronger binding
# All sequences stand within: GCCTAGCAC … GTCTTGATTCGCTTGACGCTGCTG
Strand,log fluorescence [z-score]
GACGGTTTCCTTTCCGTGACGTGCTAG,1.21
TCACTTATCCAATCAGAACTGTGCTAG,0.438
TTAGATCTCAGTTTCAATTAGTGCTAG,2.82
CACGGTCTCCTTTTCCTGACGTGCTAG,0.00238
GACAGTCTCGGTATCGGGACGTGCTAG,2.03
GGCTCTCTGGACTGTGTGTTTGTGCTA,-0.387
TTAGGACAGGGGTATCGGTTAGTGCTA,2.56
TCATGTCTGTAGCTCATACTGTGCTAG,-0.168
GATGGACTGGGGTATCGGGACGTGCTA,0.138
TCTGTTTTTGCTTTCTTTATGTGCTAG,2.93
TTAGGTTTCGGGACGGGGTTAGTGCTA,6.06
TTAGATATCGGGACTGTATTAGTGCTA,1.28
TTAGGTTTCCTGCTCCTTTAGTGCTAG,0.252
GAGATGATCCAGTTTTACCTGGTGCTA,-0.0706
GACGATCTCAGGATCGAGACGTGCTAG,-0.37
TCAATTATATCTGTGTTACTGTGCTAG,1.13
TTAGATATCAGTATGGATTAGTGCTAG,1.33
GTCGATTTCAGTTTCGAGACGTGCTAG,7.94
TACTGTGTGCATCTATCTTAGTGCTAG,0.263
TTAGATCTCAGACTGAATTAGTGCTAG,-0.053

# Study 2
# Target: Prothrombin, mature alpha-thrombin (F2, Homo sapiens, UniProt P00734)
# Method: aptamer microarray, sandwich
# Form: DNA with 2'F-ANA
# Sample: in vitro
# Concentration: 200 nM
# Setting: whole 15-mer aptamer, many near background
# Added: Cy3 exosite-II aptamer, 400 nM
# Reading: higher = stronger binding
# Strand: GGTTGGTGTGGTTGG
Modification,mean fluorescence intensity [a.u.]
2'F-ANA at 4 5 6 11 12 13,73.7
2'F-ANA at 1 3 4 6 7 8 10 13 14 15,54.2
2'F-ANA at 2 4 5 6 8 9 13 14 15,48.3
2'F-ANA at 1 2 3 4 5 7 9 11 13,48.8
2'F-ANA at 1 5 6 7 10 11 15,48.7
2'F-ANA at 2 3 5 8 10 14 15,50.4
2'F-ANA at 2 3 4 5 6 11 12 13 15,89.6
2'F-ANA at 1 2 3 4 6 8 9 11 12 14,69.8
2'F-ANA at 4 5 10 13 15,44.6
2'F-ANA at 2 3 4 6 7 8 9 10 13,204
2'F-ANA at 4 5 7 9 10 12 13 14 15,55.3
2'F-ANA at 2 3 4 5 6 9 13 15,56.1
2'F-ANA at 2 3 4 8 11 12 14 15,297
2'F-ANA at 2 3 5 6 8 10 11 12 13 14,52.7
2'F-ANA at 4 7 10 11 15,85.5
2'F-ANA at 2 3 8 9 10 12,439
2'F-ANA at 4 5 6 11 12 13 14 15,50.1

# Study 3
# Target: RNA binding protein fox-1 homolog 2, RRM domain, GST-SBP tag (RBFOX2, Homo sapiens, UniProt O43251-10, residues 100-194)
# Method: RNA Bind-n-Seq
# Form: RNA
# Sample: in vitro
# Concentration: 365 nM
# Setting: natural RNA segment, single round, ends assumed
# Baseline: no-protein control
# Reading: higher = stronger binding
# All sequences stand within: GGGAGUUCUACAGUCCGACGAUC … UGGAAUUCUCGGGUGCCAA
# Residues (chain): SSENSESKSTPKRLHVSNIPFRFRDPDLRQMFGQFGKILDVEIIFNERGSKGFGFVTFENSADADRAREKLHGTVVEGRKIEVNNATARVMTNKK
Strand,RBNS enrichment (R)
CCCUCCUGUGAUGGGCAGAGGCUCCUGGUACAUCGAGAAGAUUCCUGUGGAUCCCGUCAGGAGGGACUUAGUGGCUCUGCCGCCAGUGAGACUUCCCGCCGGCAGCUGUG,0.243
AGUAGAAAACAACUUAGUUUUUCUUUUUUCCUGAAUGCGUCAUAGGCUUGUGAGUGAUUUUUGUCCAUUCAAUUGUGCCUUCUUUGUAUUAUGAUAAGAUGGGGGUACUU,0.609
AAAAUAAUAAUAUACAGAGUUUAAUAGAAGGUGAUGUUUUGGUUUUGUUUUCCCAGAGGCUGCCAUAUGGUCUUUGAGUACGGGGAUGUCCCAAACUGGCCCACCAAUGA,0.567
AAAAAAUAGAAAUAAAACAAUCUCCCUCCAUAAUGUGAGCAAUAUUACCUCGUGCAUUGUAUAAUUUGAUGUAAAAGAAAUAGUUACCAAUGCUAGCUUGUGUGGUCUUC,0.516
GGGCUGCUAUGUGGUUCAGUUAAUCAGUGUGCCAAGAUUCUAAUAAAGUUGACCUUGGGUUCUGUGACACUAAGGAGCAAUCCUUACAAGGGAGGAACAGCUUCUAGCCA,0.286
AAGCUGCUGGAGCGACUGAUGUACAGUUGUUAUUUGUCUAUAAAUGGAGCUGUUUAUGGCAAUUUAAUACCAUUCUCUUUGUAAAGUGAAUAAAUACUCAUCUUUACCCA,0.605
CCGGGUGGGGGCAAUGCAAAAUUGUAUUUGGAAACUAGGAAAAAUUAAGAAACCAAAUAAAUUGGUUUUGCUUCCUUGCCAUGGAUUCUGGAAGGACAUAGUUCUUCUAA,0.456
AUUUCCACCUCUGCCUUUAAGGCAUUUUUGUCACUGAAGCUGCUGUUCCCAAGAGAUCGGCAACCUUUUUGUCCCUUUCUCAUAAGAAAGGGACACUCCUACAGGUGAGA,0.231
CCUCUCUUUCCUCCAAGCUAUUUUCUUCCUGGUUGUGGGGCGCGAAGGGCACACUGUAAAGUUGGGCUGUGUACUUGGUGGGGUUAGUGUGGAGAAGAGGGCCUCAUCGC,0.508
UGAAAGCUGCUGAACUCGGCAUGGCGCCUCCUCUUCUCUGUUGGGAUGAGUGACUUUAUUGAUUUGAGCAGCAUAUGCUGUGAUUGGCUGCCCUGCAAAUUUGUUUCCCU,0.544
UAUGUUAUAUAACAUUCAAAAAGAAUUUUUUUCUUGAUUGAGAAAAGGAUACAAAAUGCAAAAUCCACAAUUUUGAUAACUGAAAAUUGCCAAUUGUUUUGCAGUACUUU,0.554
CGGCUCCAAGCAUCCCUGGUUACCUGUUCAGCCUGCAAGGCCGAUGUAUAGUGUACCUCAAUUCACACGACAGCGACAGCCAUGCUCCUGCCGUACAUGGACAUCUGUUC,3.32

# Study 4
# Target: Histone acetyltransferase KAT6A, winged helix 1, GST fusion (KAT6A, Homo sapiens, UniProt Q92794, residues 1-85)
# Method: protein binding microarray
# Form: double-stranded DNA, one strand shown
# Sample: in vitro
# Concentration: not given
# Setting: 8-mer, flanks averaged, mean of 2 arrays, mostly near background
# Baseline: not given
# Reading: higher = stronger binding
# Construct (chain): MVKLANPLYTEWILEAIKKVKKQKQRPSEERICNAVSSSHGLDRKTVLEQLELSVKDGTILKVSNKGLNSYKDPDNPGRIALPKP
Strand,E-score
CACTGCAA,-0.127
AGCCCAGC,-0.101
CGTCGTGC,0.171
ACGATATA,-0.174
ATACAGTA,-0.0134
CGGTTGGC,0.102
ATTCACCC,-0.142
AGCCTCTC,-0.231
AGCGTAAG,0.191
AGGGCTCC,-0.0595
GACATAGC,-0.0389
AACGATGT,-0.131
ATCGTGAG,-0.00126
ACTGAATA,-0.16
ACTGGACT,-0.287
AACCCCAA,-0.202
CGCGTAAA,0.272
AATTACAG,0.0336

# Study 5
# Target: Ras GTPase-activating protein-binding protein 1, full length (G3BP1, Homo sapiens, UniProt Q13283)
# UniProt Q13283, sequence (whole entry, looked up): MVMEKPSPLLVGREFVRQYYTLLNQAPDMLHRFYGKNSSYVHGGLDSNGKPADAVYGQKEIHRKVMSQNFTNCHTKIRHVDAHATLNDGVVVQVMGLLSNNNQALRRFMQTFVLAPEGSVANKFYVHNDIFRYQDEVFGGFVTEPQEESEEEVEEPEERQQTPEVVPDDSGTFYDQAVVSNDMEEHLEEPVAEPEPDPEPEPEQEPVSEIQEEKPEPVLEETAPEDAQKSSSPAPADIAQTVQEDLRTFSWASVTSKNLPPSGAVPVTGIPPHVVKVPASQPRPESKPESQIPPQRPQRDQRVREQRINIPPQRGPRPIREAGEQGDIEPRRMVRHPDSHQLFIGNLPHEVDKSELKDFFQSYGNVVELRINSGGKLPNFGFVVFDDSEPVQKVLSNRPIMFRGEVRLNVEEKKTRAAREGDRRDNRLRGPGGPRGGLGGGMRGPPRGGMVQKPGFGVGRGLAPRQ
# Method: RNA Bind-n-Seq
# Form: RNA
# Sample: in vitro
# Concentration: 200 nM
# Setting: whole 134-nt RNA, ends assumed
# Added: 150 mM LiCl
# Baseline: input library
# Reading: higher = stronger binding
# Each molecule: 7-deaza-guanosine replaces G
# All sequences stand within: GGGAGUUCUACAGUCCGACGAUC … UGGAAUUCUCGGGUGUCAAGG
Strand,log2 enrichment
UCCUGUGCUACACAUCGUAUGUACCGAAUCAAAUUUUUAAACCCCCAAACCCCCCCAAAAAAGUAUUAUGUUACGCCGUUCGGAUCUGCA,0.942
ACCAUGCAGGUGGGCAUCUUUGGGAAGUGGGGCAAGGGGGGGAUAGGGAGGGGGGUAACACUUUGGGAACAGCUGGUCCCAGGUCGUUUC,0.23
CACAGACAACACGCACCCACACAGACACAGAGGGAAGGGGUUGGGAUGGGGACAGGAUGCACAGCAGGGCGGGGUAGGACCCCAGCCCCU,0.054
UGGCCCUGGUGGCAUGCGGGGAGGAAGAGGUGGCCUGAUGGAUCGUGGUGGUCCCGGUGGAAUGUUCAGAGGUGGCCGUGGUGGAGACAG,0.645
CUCAAGUCCUGUGCUACACAUCGUAUGUACCGAAUCGGGAAGGAAGGGGAAGGAAAGUAUUAUGUUACGCCGUUCGGAUCUGCACUUCCA,-0.482
AGUCCUGUGCUACACAUCGUAUGUACCGAAUCGGGAAAGGGAAAAAAAGGGAAAGGGAAAGUAUUAUGUUACGCCGUUCGGAUCUGCACU,-0.649
UGGCCCUGGUGGCAUGCGGGGAGGAAGAGGUGGCCUCAUGGAUCGUGGUGGUCCCGGUGGAAUGUUCUGAGGUGGCCGUGGUGGAGACAG,-0.0488
UGUGCUACACAUCGUAUGUACCGAAUCGGGGUUUUUUUGGGGUUUUUGGGGUUUUUUUGGGGAAAGUAUUAUGUUACGCCGUUCGGAUCU,1.74
UCCUGUGCUACACAUCGUAUGUACCGAAUCGGGAAAAAAGGAAAAAAGGGAAAAAAGGGAAAGUAUUAUGUUACGCCGUUCGGAUCUGCA,0.127
CCUCAAGUCCUGUGCUACACAUCGUAUGUACCGAAUCGGGCGGGCGGGGCGGAAAGUAUUAUGUUACGCCGUUCGGAUCUGCACUUCCAG,0.102
GAAAUUAUGGAAGUGGAAAUUACAAUGAUUUUGGAAAUUAUAACCAGCAACCUUCUAACUACGGUCCAAUGAAGAGUGGAAACUUUGGUG,-2.56

# For quick reference, copied from above (study 3):
Strand,RBNS enrichment (R)
CCCUCCUGUGAUGGGCAGAGGCUCCUGGUACAUCGAGAAGAUUCCUGUGGAUCCCGUCAGGAGGGACUUAGUGGCUCUGCCGCCAGUGAGACUUCCCGCCGGCAGCUGUG,0.243
UGAAAGCUGCUGAACUCGGCAUGGCGCCUCCUCUUCUCUGUUGGGAUGAGUGACUUUAUUGAUUUGAGCAGCAUAUGCUGUGAUUGGCUGCCCUGCAAAUUUGUUUCCCU,0.544
AGUAGAAAACAACUUAGUUUUUCUUUUUUCCUGAAUGCGUCAUAGGCUUGUGAGUGAUUUUUGUCCAUUCAAUUGUGCCUUCUUUGUAUUAUGAUAAGAUGGGGGUACUU,0.609
CGGCUCCAAGCAUCCCUGGUUACCUGUUCAGCCUGCAAGGCCGAUGUAUAGUGUACCUCAAUUCACACGACAGCGACAGCCAUGCUCCUGCCGUACAUGGACAUCUGUUC,3.32
CCUCUCUUUCCUCCAAGCUAUUUUCUUCCUGGUUGUGGGGCGCGAAGGGCACACUGUAAAGUUGGGCUGUGUACUUGGUGGGGUUAGUGUGGAGAAGAGGGCCUCAUCGC,0.508
